Measured values collected from several papers.
Compare with care: the assays were run in different laboratories.
Organism: Pseudomonas aeruginosa

SMILES = CN[C@H](CC(C)C)C(=O)N[C@H]1C(=O)N[C@@H](CC(N)=O)C(=O)N[C@H]2C(=O)N[C@H]3C(=O)N[C@H](C(=O)N[C@H](C(=O)N[C@@H](CCCNC(=N)N)C(N)=O)c4cc(O)cc(O)c4-c4cc3ccc4O)[C@H](O)c3ccc(c(Cl)c3)Oc3cc2cc(c3O[C@@H]2O[C@H](CO)[C@@H](O)[C@H](O)[C@H]2O[C@H]2C[C@](C)(NCc3ccc(OCc4cn(CC(=O)N[C@H](C(=O)N[C@@H](CCN)C(=O)N[C@H]5CCNC(=O)[C@H]([C@@H](C)O)NC(=O)[C@H](CCN)NC(=O)[C@H](CCN)NC(=O)[C@H](CC(C)C)NC(=O)[C@@H](CC(C)C)NC(=O)[C@H](CCN)NC5=O)[C@@H](C)O)nn4)c(OC)c3)[C@H](O)[C@H](C)O2)Oc2ccc(cc2Cl)[C@H]1O; test = broth microdilution; test system = ATCC 27736, cation-adjusted Mueller-Hinton broth; MIC = 6 µM
SMILES = CCCCCCCC(=O)N[C@@H](CCN)C(=O)N[C@H](C(=O)N[C@@H](CCN)C(=O)N[C@H]1CCNC(=O)[C@H]([C@@H](C)O)NC(=O)[C@H](CCN)NC(=O)[C@H](CCN)NC(=O)[C@H](CC(C)C)NC(=O)[C@@H](CCc2ccccc2)NC(=O)[C@H](CCN)NC1=O)[C@@H](C)O; test = broth microdilution; test system = PAO1, colistin-susceptible; MIC = 0.25 to 0.5 µg/mL
SMILES = C#CCOc1ccc(CN[C@@]2(C)C[C@H](O[C@H]3[C@H](Oc4c5cc6cc4Oc4ccc(cc4Cl)[C@@H](O)[C@@H](NC(=O)[C@@H](CC(C)C)NC)C(=O)N[C@@H](CC(N)=O)C(=O)N[C@H]6C(=O)N[C@H]4C(=O)N[C@H](C(=O)N[C@H](C(=O)NCC(N)=O)c6cc(O)cc(O)c6-c6cc4ccc6O)[C@H](O)c4ccc(c(Cl)c4)O5)O[C@H](CO)[C@@H](O)[C@@H]3O)O[C@@H](C)[C@H]2O)cc1OC; test = broth microdilution; test system = ATCC 17978, cation-adjusted Mueller-Hinton broth; MIC = 76 µM
SMILES = CC[C@H](C)[C@H](NC(=O)[C@H](CCCCN)NC(=O)[C@H](CCCNC(=N)N)NC(=O)[C@H](Cc1c[nH]c2ccccc12)NC(=O)[C@@H](NC(=O)[C@H](CC(N)=O)NC(=O)[C@H](CCCNC(=N)N)NC(=O)[C@@H](NC(=O)[C@H](CCCNC(=N)N)NC(=O)[C@H](CC(N)=O)NC(=O)[C@H](CCCNC(=N)N)NC(=O)[C@H](CC(C)C)NC(=O)[C@H](CCCNC(=N)N)NC(=O)[C@H](CCCNC(=N)N)NC(=O)[C@H](Cc1ccccc1)NC(=O)[C@H](CCCNC(=N)N)NC(=O)CN)[C@@H](C)CC)[C@@H](C)CC)C(=O)NCC(=O)N1CCC[C@H]1C(=O)N[C@H](C(=O)N[C@@H](C)C(=O)NCC(=O)N1CCC[C@H]1C(=O)N[C@@H](CC(C)C)C(=O)N[C@H](C(=O)N[C@@H](CO)C(=O)N[C@@H](CCCNC(=N)N)C(=O)N[C@@H](Cc1ccccc1)C(=O)NCC(=O)O)[C@@H](C)CC)[C@@H](C)CC; test = CLSI agar dilution; test system = ATCC 27853; setting = 20 h, 37 °C; MIC = 16 µg/mL
SMILES = CC[C@H](C)[C@H](N)C(=O)N[C@@H](CCCNC(=N)N)C(=O)N[C@H](C(=O)N[C@@H](Cc1c[nH]c2ccccc12)C(=O)N[C@@H](Cc1ccccc1)C(=O)N[C@H](C(=O)N[C@@H](CCCCN)C(=O)N[C@H](C(=O)N[C@@H](CCCNC(=N)N)C(=O)N[C@@H](CCCCN)C(=O)N[C@@H](CCSC)C(=O)N[C@@H](CCCCN)C(=O)N[C@@H](C)C(=O)N[C@H](C(=O)N[C@@H](Cc1ccc(O)cc1)C(=O)N[C@@H](Cc1c[nH]cn1)C(=O)N[C@H](C(N)=O)[C@@H](C)O)[C@@H](C)CC)C(C)C)[C@@H](C)CC)C(C)C; test = broth dilution; test system = ATCC 27853; MIC = > 100 µM
SMILES = CC(C)C[C@H](NC(=O)[C@H](CCCCN)NC(=O)[C@H](C)NC(=O)[C@H](CC(C)C)NC(=O)[C@H](CCCCN)NC(=O)[C@H](CCC(N)=O)NC(=O)[C@H](CCCCN)NC(=O)[C@H](CC(C)C)NC(=O)[C@H](CCCCN)NC(=O)[C@H](CCC(N)=O)NC(=O)[C@H](CC(C)C)NC(=O)[C@H](CCCCN)NC(=O)[C@H](C)NC(=O)[C@H](CCCCN)NC(=O)[C@H](CC(C)C)NC(=O)[C@H](CCCCN)NC(=O)[C@H](C)NC(=O)[C@H](CC(C)C)NC(=O)[C@H](CCCCN)NC(=O)[C@H](CCC(N)=O)NC(=O)[C@@H](N)CCCCN)C(N)=O; test system = ATCC 27853; setting = 24 h; MIC = 12.3 µM
SMILES = CC[C@H](C)[C@H](NC(=O)[C@@H](CCCNC(=N)N)NC(=O)[C@H](CCCNC(=N)N)NC(=O)[C@@H]1CCCN1C(=O)[C@@H]1CCCN1C(=O)[C@H](CCCNC(=N)N)NC(=O)[C@@H]1CCCN1C(=O)[C@H](CCCNC(=N)N)NC(=O)[C@@H]1CCCN1C(=O)[C@H](CC(C)C)NC(=O)[C@H](Cc1ccc(O)cc1)NC(=O)[C@H](Cc1ccccc1)NC(=O)[C@@H]1CCCN1C(=O)[C@H](CCCCN)NC(=O)[C@H](CC(=O)O)NC(=O)[C@@H](N)C(C)C)C(=O)N[C@@H](Cc1ccc(O)cc1)C(=O)N[C@@H](CC(N)=O)C(=O)N[C@H](CCCNC(=N)N)C(N)=O; test = broth microdilution; test system = DSM 1117; setting = 18 h, 37 °C, 25% MHB2; MIC = 128 µg/mL
SMILES = CN[C@@H]1[C@H](O)[C@H](NC)[C@H]2O[C@]3(O)[C@H](O[C@@H]2[C@H]1O)O[C@H](C)C[C@H]3NC(=O)Cc1ccc(F)cn1; test = microbial growth, broth dilution; test system = PAO1; MIC = > 200 µg/mL
SMILES = CCn1c(-c2ccc(OC)cc2)c(-c2ccc(OC)cc2)n(CC)c1=[Se]; test = broth microdilution; test system = carbapenem-resistant BAA-2108; setting = 24 h; MIC = > 40 µM
SMILES = CN[C@H](CC(C)C)C(=O)N[C@H]1C(=O)N[C@@H](CC(N)=O)C(=O)N[C@H]2C(=O)N[C@H]3C(=O)N[C@H](C(=O)N[C@H](C(=O)NCC(N)=O)c4cc(O)cc(O)c4-c4cc3ccc4O)[C@H](O)c3ccc(c(Cl)c3)Oc3cc2cc(c3O[C@@H]2O[C@H](CO)[C@@H](O)[C@H](O)[C@H]2O[C@H]2C[C@](C)(NCc3ccc(OCc4cn(CC(=O)N[C@H](C(=O)N[C@@H](CCN)C(=O)N[C@H]5CCNC(=O)[C@H]([C@@H](C)O)NC(=O)[C@H](CCN)NC(=O)[C@H](CCN)NC(=O)[C@H](CC(C)C)NC(=O)[C@@H](CC(C)C)NC(=O)[C@H](CCN)NC5=O)[C@@H](C)O)nn4)c(OC)c3)[C@H](O)[C@H](C)O2)Oc2ccc(cc2Cl)[C@H]1O; test = broth microdilution; test system = ATCC 27853, cation-adjusted Mueller-Hinton broth; MIC = 6 µM
SMILES = CCCCCCCC(=O)N[C@@H](CCN)C(=O)N[C@H](C(=O)N[C@@H](CCN)C(=O)N[C@H]1CCNC(=O)[C@H]([C@@H](C)O)NC(=O)[C@H](CCN)NC(=O)[C@H](CCN)NC(=O)[C@H](Cc2ccccc2)NC(=O)[C@@H](CCC(C)C)NC(=O)[C@H](CCN)NC1=O)[C@@H](C)O; test = broth microdilution; test system = colistin-resistant isolates; MIC = 0.25 to 2 µg/mL
SMILES = CC[C@H](C)[C@H](NC(=O)[C@@H](CCCNC(=N)N)NC(=O)[C@H](CCCNC(=N)N)NC(=O)[C@@H]1CCCN1C(=O)[C@@H]1CCCN1C(=O)[C@H](CCCNC(=N)N)NC(=O)[C@@H]1CCCN1C(=O)[C@H](CCCNC(=N)N)NC(=O)[C@@H]1CCCN1C(=O)[C@H](CC(C)C)NC(=O)[C@H](Cc1ccc(O)cc1)NC(=O)[C@@H]1CCCN1C(=O)[C@@H]1CCCN1C(=O)[C@H](CCCCN)NC(=O)[C@H](CC(=O)O)NC(=O)[C@@H](N)C(C)C)C(=O)N[C@@H](Cc1ccc(O)c([N+](=O)[O-])c1)C(=O)N[C@@H](CC(N)=O)C(=O)N[C@H](CCCNC(=N)N)C(N)=O; test = broth microdilution; test system = DSM 1117; setting = 18 h, 37 °C, 25% MHB2; MIC = > 128 µg/mL
SMILES = CC[C@H](C)[C@H](NC(=O)CNC(=O)[C@H](CC(=O)O)NC(=O)[C@H](CCCNC(=N)N)NC(=O)[C@@H](NC(=O)[C@H](Cc1c[nH]cn1)NC(=O)[C@H](CCC(N)=O)NC(=O)CNC(=O)[C@@H](NC(=O)[C@H](CCCNC(=N)N)NC(=O)[C@H](CCC(=O)O)NC(=O)[C@@H](NC(=O)[C@H](CCCCN)NC(=O)[C@H](CCCCN)NC(=O)[C@H](Cc1ccccc1)NC(=O)[C@@H](NC(=O)[C@H](CCCCN)NC(=O)[C@H](Cc1c[nH]c2ccccc12)NC(=O)[C@@H](N)CCCCN)[C@@H](C)CC)[C@@H](C)CC)C(C)C)C(C)C)C(=O)N[C@H](C(=O)N[C@@H](CCCCN)C(=O)N[C@@H](C)C(=O)NCC(=O)N[C@@H](CO)C(=O)N[C@@H](C)C(=O)N[C@H](C(=O)N[C@@H](CCC(N)=O)C(=O)N[C@H](C(=O)N[C@H](C(=O)NCC(=O)N[C@@H](CCC(N)=O)C(=O)N[C@@H](C)C(=O)N[C@@H](C)C(=O)N[C@@H](C)C(=O)N[C@H](C(=O)N[C@@H](C)C(=O)N[C@@H](CCCCN)C(N)=O)[C@@H](C)CC)C(C)C)C(C)C)C(C)C)[C@@H](C)CC; test = bacterial growth, broth microdilution; test system = cation-adjusted Mueller Hinton broth; setting = 18 h, 37 °C; MIC = ≤ 0.062 µM
SMILES = CC(C)C[C@H](NC(=O)[C@H](CCCCN)NC(=O)[C@H](CC(C)C)NC(=O)[C@H](CCCCN)NC(=O)C1CCC=CCCC(NC(=O)[C@H](CCCCN)NC(=O)[C@H](CC(C)C)NC(=O)[C@H](CCCCN)NC(=O)[C@@H](N)CC(C)C)C(=O)N[C@@H](CCCCN)C(=O)N2CCC[C@@H]2C(=O)NCC(=O)N[C@@H](CCCCN)C(=O)N1)C(N)=O (stereo partly shown); test = broth microdilution; test system = ATCC 9027, Mueller-Hinton broth; setting = 18 h, 37 °C; MIC = 16 µM
SMILES = C#CCNC(=O)[C@H]1NC(=O)[C@H]2NC(=O)[C@H](NC(=O)[C@@H]3NC(=O)[C@H](CC(N)=O)NC(=O)[C@H](NC(=O)[C@@H](CC(C)C)NC)[C@H](O)c4ccc(c(Cl)c4)Oc4cc3cc(c4O[C@@H]3O[C@H](CO)[C@@H](O)[C@H](O)[C@H]3O[C@H]3C[C@](C)(N)[C@H](O)[C@H](C)O3)Oc3ccc(cc3Cl)[C@H]2O)c2ccc(O)c(c2)-c2c(O)cc(O)cc21; test = broth microdilution; test system = ATCC 10145, cation-adjusted Mueller-Hinton broth; MIC = > 86 µM
SMILES = CC[C@H](C)[C@H](NC(=O)[C@@H](CCCNC(=N)N)NC(=O)[C@H](CCCNC(=N)N)NC(=O)[C@@H]1CCCN1C(=O)[C@@H]1CCCN1C(=O)[C@H](CCCNC(=N)N)NC(=O)[C@@H]1CCCN1C(=O)[C@H](CCCNC(=N)N)NC(=O)[C@@H]1CCCN1C(=O)[C@H](CC(C)C)NC(=O)[C@H](Cc1ccc(O)cc1)NC(=O)[C@H](Cc1ccc(O)cc1)NC(=O)[C@@H]1CCCN1C(=O)[C@H](CCCCN)NC(=O)[C@H](CC(=O)O)NC(=O)[C@@H](N)C(C)C)C(=O)N[C@@H](Cc1ccc(O)cc1)C(=O)N[C@@H](CC(N)=O)C(=O)N[C@H](CCCNC(=N)N)C(N)=O; test = broth microdilution; test system = DSM 1117; setting = 18 h, 37 °C, 25% MHB2; MIC = 128 µg/mL
